Experimental data gathered from unrelated publications.
A part holds a random share of what one study measured.
UniProt Q9NWZ3, sequence (whole entry, looked up): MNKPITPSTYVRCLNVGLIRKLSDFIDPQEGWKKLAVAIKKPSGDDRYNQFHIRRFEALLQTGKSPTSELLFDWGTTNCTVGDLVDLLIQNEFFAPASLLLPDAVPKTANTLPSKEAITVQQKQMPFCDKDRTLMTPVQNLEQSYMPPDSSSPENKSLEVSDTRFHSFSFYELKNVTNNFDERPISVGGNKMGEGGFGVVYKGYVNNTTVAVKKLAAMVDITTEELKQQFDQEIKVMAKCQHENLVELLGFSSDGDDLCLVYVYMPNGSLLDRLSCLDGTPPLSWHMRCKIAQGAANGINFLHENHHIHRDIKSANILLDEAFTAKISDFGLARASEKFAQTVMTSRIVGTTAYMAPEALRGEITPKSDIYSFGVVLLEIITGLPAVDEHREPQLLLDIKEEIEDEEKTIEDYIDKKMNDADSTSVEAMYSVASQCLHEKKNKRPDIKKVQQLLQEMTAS
UniProt P11309, sequence (whole entry, looked up): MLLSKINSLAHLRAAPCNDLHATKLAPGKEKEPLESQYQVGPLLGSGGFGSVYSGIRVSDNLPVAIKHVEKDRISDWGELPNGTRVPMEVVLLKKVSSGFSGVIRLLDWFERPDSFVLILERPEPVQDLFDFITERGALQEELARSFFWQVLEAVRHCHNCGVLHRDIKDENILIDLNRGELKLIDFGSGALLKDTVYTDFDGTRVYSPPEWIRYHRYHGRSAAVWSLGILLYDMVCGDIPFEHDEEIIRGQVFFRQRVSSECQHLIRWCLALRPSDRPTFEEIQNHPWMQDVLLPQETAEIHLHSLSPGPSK
UniProt O43353, sequence (whole entry, looked up): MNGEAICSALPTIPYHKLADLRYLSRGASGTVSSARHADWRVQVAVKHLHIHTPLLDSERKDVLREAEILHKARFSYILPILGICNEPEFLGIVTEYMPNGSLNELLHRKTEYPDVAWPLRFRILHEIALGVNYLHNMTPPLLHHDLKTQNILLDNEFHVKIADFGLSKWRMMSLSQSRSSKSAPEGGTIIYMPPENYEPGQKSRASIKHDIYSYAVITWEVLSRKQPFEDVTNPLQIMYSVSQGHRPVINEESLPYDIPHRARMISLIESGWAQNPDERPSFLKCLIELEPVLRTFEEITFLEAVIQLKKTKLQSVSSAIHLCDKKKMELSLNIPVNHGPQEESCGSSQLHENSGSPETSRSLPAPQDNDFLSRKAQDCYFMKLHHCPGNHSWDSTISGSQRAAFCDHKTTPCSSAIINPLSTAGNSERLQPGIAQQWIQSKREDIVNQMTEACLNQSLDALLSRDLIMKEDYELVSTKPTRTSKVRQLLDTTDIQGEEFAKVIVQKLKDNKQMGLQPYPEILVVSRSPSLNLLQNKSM
UniProt P07949, sequence (whole entry, unmodified, looked up): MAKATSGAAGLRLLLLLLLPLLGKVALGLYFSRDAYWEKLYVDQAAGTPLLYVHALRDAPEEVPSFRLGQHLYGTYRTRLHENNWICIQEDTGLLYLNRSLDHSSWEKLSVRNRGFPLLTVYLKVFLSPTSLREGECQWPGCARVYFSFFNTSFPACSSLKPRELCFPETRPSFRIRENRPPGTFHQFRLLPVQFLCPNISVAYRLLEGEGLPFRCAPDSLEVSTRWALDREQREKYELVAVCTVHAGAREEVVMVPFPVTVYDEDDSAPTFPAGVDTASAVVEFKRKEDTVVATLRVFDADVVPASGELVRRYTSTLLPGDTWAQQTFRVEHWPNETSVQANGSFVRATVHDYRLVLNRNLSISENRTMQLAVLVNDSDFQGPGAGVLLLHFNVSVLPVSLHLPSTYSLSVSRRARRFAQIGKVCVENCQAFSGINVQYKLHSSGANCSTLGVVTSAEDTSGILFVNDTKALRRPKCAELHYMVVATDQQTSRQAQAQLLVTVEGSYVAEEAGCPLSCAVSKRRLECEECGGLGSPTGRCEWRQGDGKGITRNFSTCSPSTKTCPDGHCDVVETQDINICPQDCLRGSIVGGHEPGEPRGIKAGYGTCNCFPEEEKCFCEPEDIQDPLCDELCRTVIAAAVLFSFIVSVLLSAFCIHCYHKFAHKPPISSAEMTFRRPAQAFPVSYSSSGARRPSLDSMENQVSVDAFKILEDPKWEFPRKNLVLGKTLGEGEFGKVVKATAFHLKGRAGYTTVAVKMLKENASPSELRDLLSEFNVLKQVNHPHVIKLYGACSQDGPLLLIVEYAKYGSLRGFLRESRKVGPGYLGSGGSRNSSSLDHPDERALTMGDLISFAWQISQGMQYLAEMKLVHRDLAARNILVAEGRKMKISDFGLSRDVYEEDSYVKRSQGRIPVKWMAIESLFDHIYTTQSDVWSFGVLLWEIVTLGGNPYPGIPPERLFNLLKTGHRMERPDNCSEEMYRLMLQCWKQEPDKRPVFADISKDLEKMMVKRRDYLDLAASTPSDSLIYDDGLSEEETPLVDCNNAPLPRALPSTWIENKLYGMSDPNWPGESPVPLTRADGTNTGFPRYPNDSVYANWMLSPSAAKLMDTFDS
UniProt P14616, sequence (whole entry, looked up): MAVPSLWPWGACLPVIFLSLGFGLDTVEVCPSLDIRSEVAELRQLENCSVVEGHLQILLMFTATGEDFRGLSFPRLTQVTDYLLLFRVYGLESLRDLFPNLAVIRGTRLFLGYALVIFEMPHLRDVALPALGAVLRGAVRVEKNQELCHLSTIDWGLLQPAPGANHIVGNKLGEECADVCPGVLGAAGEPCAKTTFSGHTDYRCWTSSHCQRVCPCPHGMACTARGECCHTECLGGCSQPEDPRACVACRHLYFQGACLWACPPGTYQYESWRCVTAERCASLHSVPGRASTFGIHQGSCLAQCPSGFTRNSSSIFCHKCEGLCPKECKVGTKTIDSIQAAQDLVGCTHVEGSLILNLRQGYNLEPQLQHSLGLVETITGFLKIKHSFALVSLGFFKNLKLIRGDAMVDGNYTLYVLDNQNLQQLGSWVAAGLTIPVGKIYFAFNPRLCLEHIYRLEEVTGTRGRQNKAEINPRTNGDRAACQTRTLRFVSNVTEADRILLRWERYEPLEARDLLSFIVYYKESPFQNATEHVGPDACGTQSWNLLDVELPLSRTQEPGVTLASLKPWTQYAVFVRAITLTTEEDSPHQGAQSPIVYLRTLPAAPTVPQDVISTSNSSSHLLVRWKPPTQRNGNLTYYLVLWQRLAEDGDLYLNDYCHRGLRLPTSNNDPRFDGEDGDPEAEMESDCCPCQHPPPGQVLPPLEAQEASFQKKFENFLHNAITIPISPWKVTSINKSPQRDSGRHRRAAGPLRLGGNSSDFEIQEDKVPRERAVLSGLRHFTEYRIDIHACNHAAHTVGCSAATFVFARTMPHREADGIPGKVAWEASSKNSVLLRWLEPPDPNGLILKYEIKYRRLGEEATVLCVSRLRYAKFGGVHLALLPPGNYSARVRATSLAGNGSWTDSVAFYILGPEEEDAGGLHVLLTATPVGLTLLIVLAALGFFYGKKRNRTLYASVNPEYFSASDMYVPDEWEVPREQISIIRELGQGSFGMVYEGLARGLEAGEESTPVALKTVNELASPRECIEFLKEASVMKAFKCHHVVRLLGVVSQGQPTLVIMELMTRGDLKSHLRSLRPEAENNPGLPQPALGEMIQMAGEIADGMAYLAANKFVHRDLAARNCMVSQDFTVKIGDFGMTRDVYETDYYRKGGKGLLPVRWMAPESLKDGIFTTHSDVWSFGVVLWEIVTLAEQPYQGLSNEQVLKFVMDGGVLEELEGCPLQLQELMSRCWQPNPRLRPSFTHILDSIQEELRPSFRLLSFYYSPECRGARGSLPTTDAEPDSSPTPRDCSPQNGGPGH
UniProt Q86UX6, sequence (whole entry, looked up): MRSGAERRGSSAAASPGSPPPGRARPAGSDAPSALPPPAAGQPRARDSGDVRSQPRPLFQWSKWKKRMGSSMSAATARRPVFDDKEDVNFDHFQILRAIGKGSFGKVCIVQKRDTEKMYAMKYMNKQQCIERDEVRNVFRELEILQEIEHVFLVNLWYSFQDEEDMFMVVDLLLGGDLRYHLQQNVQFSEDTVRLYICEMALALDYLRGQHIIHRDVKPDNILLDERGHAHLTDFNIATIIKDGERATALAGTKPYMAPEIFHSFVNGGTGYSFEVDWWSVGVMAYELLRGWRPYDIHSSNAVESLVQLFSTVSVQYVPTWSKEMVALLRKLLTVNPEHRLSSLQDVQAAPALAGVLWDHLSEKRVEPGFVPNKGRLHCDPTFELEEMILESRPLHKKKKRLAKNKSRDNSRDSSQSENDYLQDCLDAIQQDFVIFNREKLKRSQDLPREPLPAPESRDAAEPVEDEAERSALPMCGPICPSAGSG
UniProt Q00532, sequence (whole entry, looked up): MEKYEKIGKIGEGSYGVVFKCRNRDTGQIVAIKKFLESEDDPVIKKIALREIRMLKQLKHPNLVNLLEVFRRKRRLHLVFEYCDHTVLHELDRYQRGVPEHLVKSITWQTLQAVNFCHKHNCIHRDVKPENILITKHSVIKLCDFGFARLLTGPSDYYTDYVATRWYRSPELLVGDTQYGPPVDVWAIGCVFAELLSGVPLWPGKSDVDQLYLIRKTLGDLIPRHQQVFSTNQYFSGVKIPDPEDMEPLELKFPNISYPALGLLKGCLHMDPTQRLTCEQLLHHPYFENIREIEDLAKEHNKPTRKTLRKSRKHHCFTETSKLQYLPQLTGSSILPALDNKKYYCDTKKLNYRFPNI

Block 1 — observed: cell-free assay; method: competition with immobilised ligand; concentration: 1 µM; measurement: remaining binding
Compound: COc1ccc2c(c1)O[C@@H](c1ccc(OC)c(OC)c1)C[C@H]2NC(=O)C1(c2ccc3c(c2)OC(F)(F)O3)CC1
Receptor-interacting serine/threonine-protein kinase 2 (RIPK2, Homo sapiens, UniProt O43353): 94%
Tyrosine-protein kinase ABL1, phosphorylated (ABL1, Homo sapiens, UniProt P00519, F317L): 76%
Interleukin-1 receptor-associated kinase 4 (IRAK4, Homo sapiens, UniProt Q9NWZ3): 82%
Rhodopsin kinase GRK7 (GRK7, Homo sapiens, UniProt Q8WTQ7): 100%
Mitogen-activated protein kinase 3 (MAPK3, Homo sapiens, UniProt P27361): 89%
Cyclin-dependent kinase-like 1 (CDKL1, Homo sapiens, UniProt Q00532): 82%
Vascular endothelial growth factor receptor 2 (KDR, Homo sapiens, UniProt P35968): 80%
cAMP-dependent protein kinase catalytic subunit beta (PRKACB, Homo sapiens, UniProt P22694): 95%
Proto-oncogene tyrosine-protein kinase receptor Ret (RET, Homo sapiens, UniProt P07949, V804L): 95%
TRAF2 and NCK-interacting protein kinase (TNIK, Homo sapiens, UniProt Q9UKE5): 71%
Serine/threonine-protein kinase pim-1 (PIM1, Homo sapiens, UniProt P11309): 91%
Serine/threonine-protein kinase tousled-like 1 (TLK1, Homo sapiens, UniProt Q9UKI8): 84%
Serine/threonine-protein kinase 17A (STK17A, Homo sapiens, UniProt Q9UEE5): 100%
Epidermal growth factor receptor (EGFR, Homo sapiens, UniProt P00533, G719S): 91%
Phosphatidylinositol 4,5-bisphosphate 3-kinase catalytic subunit alpha isoform (PIK3CA, Homo sapiens, UniProt P42336, E545A): 94%
Serine/threonine-protein kinase 32C (STK32C, Homo sapiens, UniProt Q86UX6): 100%
MAP/microtubule affinity-regulating kinase 3 (MARK3, Homo sapiens, UniProt P27448): 100%
Insulin receptor-related protein (INSRR, Homo sapiens, UniProt P14616): 100%

Block 2 — organism: Sarcocystis neurona; observed: parasite growth; concentration: 10 µM; time: 96 h; notes: second screen; baseline: untreated; measurement: log2 fold change
CN(C)CCOC(C)(c1ccccc1)c1ccccn1 (stereo not shown): 0.31
CCCc1nc2c(C)cc(-c3nc4ccccc4n3C)cc2n1Cc1ccc(-c2ccccc2C(=O)O)cc1: -0.24
CC(=O)OCC(=O)NCCCOc1cccc(CN2CCCCC2)c1: 0.46
CNCCCN1c2ccccc2CCc2ccccc21: 0.31
CC(=O)O[C@]1(C(C)=O)CC[C@H]2[C@@H]3C=C(C)C4=CC(=O)CC[C@]4(C)[C@H]3CC[C@@]21C: 0.11

Block 3 — observed: enzyme activity; action: inhibitor; concentration: 10 µM; measurement: inhibition
Target: Calcium/calmodulin-dependent protein kinase type II subunit alpha (CAMK2A, Homo sapiens, UniProt Q9UQM7)
UniProt Q9UQM7, sequence (whole entry, looked up): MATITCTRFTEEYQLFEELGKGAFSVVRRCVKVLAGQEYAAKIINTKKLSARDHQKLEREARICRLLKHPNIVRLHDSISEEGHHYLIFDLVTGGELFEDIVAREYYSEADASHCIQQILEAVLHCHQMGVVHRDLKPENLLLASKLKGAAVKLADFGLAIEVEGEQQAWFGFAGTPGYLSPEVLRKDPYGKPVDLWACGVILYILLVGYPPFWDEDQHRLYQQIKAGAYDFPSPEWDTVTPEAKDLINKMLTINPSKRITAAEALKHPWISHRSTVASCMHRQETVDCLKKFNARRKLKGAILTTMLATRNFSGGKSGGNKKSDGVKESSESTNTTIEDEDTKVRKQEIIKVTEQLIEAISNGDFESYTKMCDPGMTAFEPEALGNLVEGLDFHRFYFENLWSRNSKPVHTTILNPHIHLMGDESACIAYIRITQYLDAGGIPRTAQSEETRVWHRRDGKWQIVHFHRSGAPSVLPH
O=C1OCc2ccccc21: -12%
COc1cc2c(c(OC)c1OC)-c1c(cc(OC)c(OC)c1OC)C[C@](C)(O)[C@@H](C)C2: -27%
O=c1cc(-c2ccc(O)cc2)oc2c([C@@H]3O[C@H](CO)[C@@H](O)[C@H](O)[C@H]3O)c(O)c([C@@H]3OC[C@H](O)[C@H](O)[C@H]3O)c(O)c12: -19%
O=c1cc(-c2ccc(O)cc2)oc2cc(O)cc(O)c12: -11%
O=C1C[C@@H](c2ccc(O)c(O)c2)Oc2c1ccc(O[C@@H]1O[C@H](CO)[C@@H](O)[C@H](O)[C@H]1O)c2O: 11%

Block 4 — host: human; sample: microsomes or S9; concentration: 2 µM; time: 0.5 h; measurement: remaining compound
O=C(Cc1cc(Br)ccc1F)OCCNC(=O)c1cccnc1: 2.29%
CN(c1cccc(NC(=O)C(C)(C)C)c1)S(C)(=O)=O: 92.3%
COc1ccccc1N(C)C(=O)c1cc(S(=O)(=O)N2CCOCC2)cn1C: 42.5%
CC(=O)Nc1cc(F)c(F)cc1NC(=O)CCNC(=O)C(C)(C)C: 83.4%
CC(C)=C1CC[C@H](C)[C@](C)(COc2ccc3ccc(=O)oc3c2)[C@@H]1CCC(N)=O: 0%
NS(=O)(=O)c1ccc(CNc2nc(Cl)nc3[nH]cnc23)cc1: 90.7%
COc1ccc(N2C(=O)CC(NNC(=O)c3cc(C(F)(F)F)n[nH]3)C2=O)cc1 (stereo not shown): 29.2%
Cn1c(=O)n(Cc2ccc(-c3ccccc3C#N)cc2)c2ccccc21: 9.8%
CCn1c(C(=O)N(C)c2cc(C)ccc2OC)cc2c(=O)oc3ccccc3c21: 0.876%
